Results collected from several papers.
Numbered parts are unrelated; each lists some results of a single study.

Series 1
Cell line: HEK-293T/ACE2
Tested at: concentration not given
Time: 16 (unit not given)
Baseline: vehicle
C=CC[N+]1([C@H]2C[C@H]3[C@@H]4CC[C@H]5C[C@H](O)[C@@H](N6CCOCC6)C[C@]5(C)[C@H]4CC[C@]3(C)[C@H]2OC(C)=O)CCCC1 has a viability of 102%.
The viability of CNC(=C[N+](=O)[O-])NCCSCc1csc(CN(C)C)n1 is reported as 101%.
COc1c(C)c2c(c(O)c1C/C=C(\C)CCC(=O)OCCN1CCOCC1)C(=O)OC2 has a viability of 84.3%.
The viability of C[C@]12C=CC(=O)N[C@@H]1CC[C@@H]1[C@@H]2CC[C@]2(C)[C@@H](C(=O)Nc3cc(C(F)(F)F)ccc3C(F)(F)F)CC[C@@H]12 is reported as 104%.

Series 2
Target: RNA binding protein fox-1 homolog 2, RRM domain, GST-SBP tag (RBFOX2, Homo sapiens, UniProt O43251-10, residues 100-194)
Technique: RNA Bind-n-Seq
Molecule type: RNA
Medium: in vitro
Tested at: 365 nM
Setting: natural RNA segment, single round, ends assumed
Baseline: no-protein control
Reading: higher = stronger binding
All sequences stand within: GGGAGUUCUACAGUCCGACGAUC … UGGAAUUCUCGGGUGCCAA
Target sequence (chain): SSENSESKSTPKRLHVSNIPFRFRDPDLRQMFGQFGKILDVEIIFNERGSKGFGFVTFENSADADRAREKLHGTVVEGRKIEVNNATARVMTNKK
`UCAGAUAAUCCUUGUGUCUUGGGUCAGUUUGGCCCUGGCCCUAGAGUGAGGCAAGCCCUUCCUAUGAAGAUGAGCAAAAAUAUUAUUCCACUUCACUCUGAGUGCUUUCA`: “RBNS enrichment (R)” 0.279.
`CAGCCUGGAGGAUUUUUAGCCGAAACAGUUGCAUGUGAAGGAUUAUCAGCCAUCUUUGCAUAUCCCUUUCACAUCUACCUUCACACAGGAAAGCUGAAUGCAUUUUACCA` — result for “RBNS enrichment (R)”: 1.15.
For `AGUUUCUGGCUUGCUUCUCCCUUUGUAUAGGGGAGAACAGAGAAGAGGUUUAUGCUGAGGGGGGGUGACUUUUUAGAAACGUAGCUUCUUGGCGUUUUGCAACCCAUGCU`, “RBNS enrichment (R)” read 2.73.
Under “RBNS enrichment (R)”, `GCUGAAAUUUGAAGACCAGAUAAUGAAACUGAAAAGCAAACAAUUUUACUGAAUCUGUCUACCCUUCAUUCAUGAGAACUCCAGAAUGAGUGUUGACCACUGAAGCAUCU` is recorded as 2.09.
`CCAUAAAGACUCCGUGUAACUGUGUGAACACUUGGGAUUUUUCUCCUCUGUCCCGAGGUCGUCGUCUGCUUUCUUUUUUGGGUUUCUUUCUAGAAGAUUGAGAAGUGCAU` — result for “RBNS enrichment (R)”: 0.529.
Under “RBNS enrichment (R)”, `GCAAGCUGCCGAACCAAAAGAAUUUGCACCCCGCUGCGGGCCCACGUGGUUGGGGCCCUGCCCUGGCAGGGUCAUCCUGUGCUCGGAGGCCAUCUCGGGCACAGGCCCAC` is recorded as 0.786.
`UAUCACAUAACAGGACCAUGUUUUUAACCUACCAUCAAGAGCCUGUAUUUUGAGUUAUUCCAACAGAGAUGAUGGAUUCCUGUAGAACUAGAGGUGGGUGACCUAUGGUU` — result for “RBNS enrichment (R)”: 0.544.
`AUGCACCUGCAAGAAUUGGGAAGAAAGAGCAUUUAUUAGGCACUGUAGCAAUUUGCAUUUUAAAAUGCCUGAGCAUUUAUUAAGCUUCUUGGUAUUCACUUGGGUUUGAU` — result for “RBNS enrichment (R)”: 2.3.

Series 3
Target: Replicase polyprotein 1ab, nsp13 helicase (rep, Severe acute respiratory syndrome coronavirus 2, UniProt P0DTD1)
Mode: inhibitor
Tested at: 20 µM
CCCCc1oc2ccc(NS(C)(=O)=O)cc2c1C(=O)c1ccc(OCCCN(CCCC)CCCC)cc1 gave an inhibition of 1.47%.
N[C@@H](C(=O)O)c1ccc(C(=O)O)c(O)c1 (racemic) gave an inhibition of 0.09%.
With c1ccc(C[C@H](c2ccccc2)N2CCCCC2)cc1 (racemic) the inhibition was 3.16%.
With C[C@@H]([C@H](C)O)[C@H](N)C(=O)O the inhibition was 91.2%.
For CCc1nn(CCO)c(CC)c1Oc1cc(C#N)cc(C#N)c1, the inhibition was 5.16%.
Cc1ccc(C(=O)Nc2ccc(CN3CCN(C)CC3)c(C(F)(F)F)c2)cc1C#Cc1cnc2[nH]ncc2c1 has an inhibition of 14.9%.
CN(C(=O)c1c(O)c2ccccc2n(C)c1=O)c1ccccc1 gave an inhibition of -3.93%.
COc1ccc(C(=O)c2ccccc2)c(O)c1 gave an inhibition of 4.15%.
The inhibition of COC(=O)C1=C(C)NC(C)=C(C(=O)OCCN2CCN(C(c3ccccc3)c3ccccc3)CC2)C1c1cccc([N+](=O)[O-])c1 (stereo not drawn) is reported as 4.83%.
With Cc1ccc(NC(=O)C(C)C)cc1C1CCN(Cc2ccc(Oc3ccc(F)c(F)c3)cc2)CC1 the inhibition was 1.56%.
The inhibition of COCCOC(=O)C1=C(C)NC(C)=C(C(=O)OC/C=C/c2ccccc2)C1c1cccc([N+](=O)[O-])c1 (stereo not drawn) is reported as 4.26%.
COc1ccc(CN2C(=O)C(=O)c3cc(OC(F)(F)F)ccc32)cc1 has an inhibition of 39.5%.
With COc1cc(C[C@@H]2NCCc3cc(O)c(O)cc32)cc(OC)c1OC the inhibition was 3.37%.
OC[C@@H](O)[C@@H](O)[C@H](O)[C@H](O)CO has an inhibition of 10.3%.
Oc1cc(O)c(Cl)cn1 gave an inhibition of 2.16%.
The inhibition of CC(C)OC(=O)OCOP(=O)(CO[C@H](C)Cn1cnc2c(N)ncnc21)OCOC(=O)OC(C)C is reported as 8.05%.
c1cc(-c2cnn3cc(-c4ccc(OCCN5CCCCC5)cc4)cnc23)ccn1 has an inhibition of 23.3%.
CC[C@]1(O)C[C@@H]2CN(CCc3c([nH]c4ccccc34)[C@@](C(=O)OC)(c3cc4c(cc3OC)N(C)[C@H]3[C@@](O)(C(=O)OC)[C@H](OC(C)=O)[C@]5(CC)C=CCN6CC[C@]43[C@@H]65)C2)C1 has an inhibition of 0.26%.
The inhibition of CN(C)CCC(c1ccc(Br)cc1)c1ccccn1 (stereo not drawn) is reported as 3.41%.
For CCCCCCCCCCCCCCOC(=O)c1cccnc1, the inhibition was -0.43%.
The inhibition of CCn1c(=O)/c(=C2\Sc3ccccc3N2C)s/c1=C\c1cccc[n+]1CC is reported as 76.6%.
The inhibition of N[C@@H]1[C@H]2CN(c3nc4c(cc3F)c(=O)c(C(=O)O)cn4-c3ccc(F)cc3F)C[C@@H]12 is reported as 7.13%.
O=C(Nc1ccc(C(=O)O)c(O)c1)c1ccccc1 has an inhibition of 5.66%.
With CC(C)(C)c1cc(C(C)(C)C)c(NC(=O)c2c[nH]c3ccccc3c2=O)cc1O the inhibition was 6.2%.
Cc1[nH]c2ccc(F)cc2c1-c1nc2c3cccnc3c3ncccc3c2[nH]1 gave an inhibition of 8.46%.

Series 4
Target: RING finger protein unkempt homolog, zinc fingers 1-6, GST-SBP tag (UNK, Homo sapiens, UniProt Q9C0B0, residues 30-357)
UniProt Q9C0B0, sequence (30-357, looked up): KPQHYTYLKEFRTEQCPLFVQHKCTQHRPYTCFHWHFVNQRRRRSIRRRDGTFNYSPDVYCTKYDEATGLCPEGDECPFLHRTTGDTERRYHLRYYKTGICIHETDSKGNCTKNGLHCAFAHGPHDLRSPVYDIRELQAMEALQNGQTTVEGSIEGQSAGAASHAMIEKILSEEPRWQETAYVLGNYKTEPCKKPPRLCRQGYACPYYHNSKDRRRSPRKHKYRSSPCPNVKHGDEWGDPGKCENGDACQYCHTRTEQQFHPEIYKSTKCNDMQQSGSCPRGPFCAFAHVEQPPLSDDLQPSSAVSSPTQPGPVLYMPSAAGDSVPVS
Technique: RNA Bind-n-Seq
Molecule type: RNA
Medium: in vitro
Tested at: not given
Setting: RNA with constant flanks, human and mouse sites, ends assumed
Baseline: input RNA pool
Reading: higher = stronger binding
All sequences stand within: GGGAGUUCUACAGUCCGACGAUC … CAACAGAGGAUUGAGCAUCA
`UCUGGCUACUGAUGCAGCACAAGAGACGUGUUUUUUUUUUAAAUGAGGAAAGACGCUGUUUAGGUUUGGUUUGGUUUCAUUUUAAUUACUCUAGGGAAAACACUGACGAAUGGUCAGCGC` gave a bound/input enrichment of 1.42 ratio.
The bound/input enrichment of `CGUUUUUUAUUGGAAAUGAGCACACAUUUACACAGGAGACCAAAAUCCACUUGCUAUUUCAAUAGCCUGACUGUUUCUGAGCAGGUAGAGAAAUAAACAUGGAAAACAAAGACAGGGUGA` is reported as 0.512 ratio.
`GGUAACUAGUGGGGGUAAAUGAAUUUAACACACGAUAUUUGAAGAUUAUUUGGAGGAUUUUUGUAGGACAUGGCAUAGAGAGGAAUAUAAAAGAUACUUCACAGUUGAAAGAAAUAGAAU` has a bound/input enrichment of 8.92 ratio.
`CCAAAACAUGUGAUAUCCCUUUAACCUGUGCACAGUCUGGAGGCAGUUUUAUUGAGUGAGUAGUUGAGUGAGAGAACAAAAUGCCCAGCAAAACUUCUGGCCUCCACAGUUUGCUGAUGC` has a bound/input enrichment of 0.17 ratio.
The bound/input enrichment of `GCUGAAGAGAGGAGGAUGAUCUAGGACGCUGUCCGGGUGGACGGCCACGCCGCAAGACGCGGCCCUGCAGGAGUGACUAGCACGGUCAGGGCGGGAGCCACGAGCGCCUCUGGGAACCUC` is reported as 0.1 ratio.
With `CCCCAAUACCAUUUGCAGGUCUGGAACUGCACUCUCUUUUUUAAAAAACAUGUAUACAUUUUAGGGCUGUAGAUUUAUUUUCCUGGUUUUGUUUUUCAUUGCUGACUUUUGAGCACAGAA` the bound/input enrichment was 1.65 ratio.
`UAAAAGCGAUGCCCAUAUAAGUCAAGGAAAUGAGCCCAGGCCUCGCUGUGAAGCAGUGUGUGAAUGGACAGUGUUGAAUGGGUGUCUGGCUCCGUGCUAGAGAGCCAGGUUCAUCUUUCA` gave a bound/input enrichment of 0.171 ratio.
The bound/input enrichment of `UUUUUAAAAAAAUAAAAUAAAACAUAAAUAUUACUCUUCCAUAUUCCUUCUGCCUAUAUUUAGUAAUUAAUUUAUUUUAUGAUAAAGUUCUAAUGAAAUGUAAAUUGUUUCAGCAAAAUU` is reported as 4.41 ratio.

Series 5
Target: Sal-like protein 4, full length isoform B (SALL4, Homo sapiens, UniProt Q9UJQ4-2, residues 1-616)
Technique: universal PBM
Molecule type: double-stranded DNA, one strand shown
Medium: in vitro
Tested at: not given
Setting: 8-mer, flanks averaged, mean of replicates
Reading: higher = stronger binding
`CGTAAAGA` has an E-score of 0.0287.
`ACACCTTG` gave an E-score of 0.00635.
The E-score of `CGATAACC` is reported as 0.0434.
`ATGAGGGC` gave an E-score of -0.0863.
With `ACGCATTA` the E-score was 0.163.
`TCGCACCA` gave an E-score of 0.0215.
For `CGTCCGGA`, the E-score was -0.19.
For `ACCCATGG`, the E-score was -0.349.

Series 6
Organism: SARS-CoV-2
Observed: cytopathic effect
Cells: Vero E6
Tested at: 10 µM
For CCCC[C@H](NC(=O)[C@@H]1[C@@H]2[C@H](CN1C(=O)[C@@H](NC(=O)NC1(CS(=O)(=O)C(C)(C)C)CCCCC1)C(C)(C)C)C2(C)C)C(=O)C(=O)NC1CC1, the inhibition was 2.8%.
For Cc1ccccc1N(C)C(=O)c1ccc([S+]([O-])c2nccs2)c([N+](=O)[O-])c1 (stereo not drawn), the inhibition was -37.4%.
For Cc1ccc(-n2sc3ccccc3c2=O)cc1, the inhibition was -9.9%.
For COc1cc(C[C@@H]2NCCc3cc(O)c(O)cc32)cc(OC)c1OC, the inhibition was 7.3%.

For quick reference, copied from above (series 2):
`UAUCACAUAACAGGACCAUGUUUUUAACCUACCAUCAAGAGCCUGUAUUUUGAGUUAUUCCAACAGAGAUGAUGGAUUCCUGUAGAACUAGAGGUGGGUGACCUAUGGUU` — result for “RBNS enrichment (R)”: 0.544.
`CCAUAAAGACUCCGUGUAACUGUGUGAACACUUGGGAUUUUUCUCCUCUGUCCCGAGGUCGUCGUCUGCUUUCUUUUUUGGGUUUCUUUCUAGAAGAUUGAGAAGUGCAU` — result for “RBNS enrichment (R)”: 0.529.
`CAGCCUGGAGGAUUUUUAGCCGAAACAGUUGCAUGUGAAGGAUUAUCAGCCAUCUUUGCAUAUCCCUUUCACAUCUACCUUCACACAGGAAAGCUGAAUGCAUUUUACCA` — result for “RBNS enrichment (R)”: 1.15.
Under “RBNS enrichment (R)”, `GCUGAAAUUUGAAGACCAGAUAAUGAAACUGAAAAGCAAACAAUUUUACUGAAUCUGUCUACCCUUCAUUCAUGAGAACUCCAGAAUGAGUGUUGACCACUGAAGCAUCU` is recorded as 2.09.
Under “RBNS enrichment (R)”, `GCAAGCUGCCGAACCAAAAGAAUUUGCACCCCGCUGCGGGCCCACGUGGUUGGGGCCCUGCCCUGGCAGGGUCAUCCUGUGCUCGGAGGCCAUCUCGGGCACAGGCCCAC` is recorded as 0.786.
`UCAGAUAAUCCUUGUGUCUUGGGUCAGUUUGGCCCUGGCCCUAGAGUGAGGCAAGCCCUUCCUAUGAAGAUGAGCAAAAAUAUUAUUCCACUUCACUCUGAGUGCUUUCA`: “RBNS enrichment (R)” 0.279.
For `AGUUUCUGGCUUGCUUCUCCCUUUGUAUAGGGGAGAACAGAGAAGAGGUUUAUGCUGAGGGGGGGUGACUUUUUAGAAACGUAGCUUCUUGGCGUUUUGCAACCCAUGCU`, “RBNS enrichment (R)” read 2.73.
`AUGCACCUGCAAGAAUUGGGAAGAAAGAGCAUUUAUUAGGCACUGUAGCAAUUUGCAUUUUAAAAUGCCUGAGCAUUUAUUAAGCUUCUUGGUAUUCACUUGGGUUUGAU` — result for “RBNS enrichment (R)”: 2.3.
